Earlier results as cited in several papers.
± marks the error that the study gave.

SMILES | tested on | test | test system | conditions | how to read | quantity | value
Oc1cc2nc(c1)CNCCCNCCCNCCNCCCNCCCNC2 |  |  | 0.15 M NaClO4 | 298.1 K, H5L5+ + H+ ⇄ H6L6+ |  | log K | 4.14
CN1C(=O)[C@@H](Cc2ccc(O)cc2)NC(=O)CNC(=O)[C@H](Cc2ccc3ccccc3c2)NC(=O)[C@H](CCCNC(=N)N)NC(=O)[C@H]1CCCNC(=O)c1ccc(CNC(=O)CN2CCN(CC(=O)O)CCN(CC(=O)O)CCN(CC(=O)O)CC2)cc1 [gallium-68 labelled] |  | PET dosimetry | human patients, spleen |  |  | absorbed dose coefficient | 0.0538 mGy/MBq
COc1cc2c(NC3CCN(C)CC3)nc(N3CCCN(C)CC3)nc2cc1OCc1ccccc1 |  |  |  | pH 3 |  | logD | 0.9
CNCCCOc1cc(F)c(-c2c(Cl)nc3ncnn3c2N[C@@H](C)C(F)(F)F)c(F)c1 |  |  | nude mouse, female |  |  | half-life | 13 h
CCN(CC)c1ccc(-c2cc3c(s2)c(C(=O)OC)cc(=O)n3C)cc1 |  |  | dichloromethane | 10 µM |  | absolute quantum yield | 91%
CC(=O)O[C@H]1C2=C(C(=O)C(OC(=O)c3ccc(Cl)cc3)=C(C(C)C)C2=O)[C@@]2(C)CCCC(C)(C)[C@@H]2[C@@H]1OC(=O)c1ccc(Cl)cc1 | MOLT-3 |  |  |  |  | GI50 | > 30 µM
C=CC1CC1(NC(=O)C1CC(Oc2nccc3cc(OC)ccc23)CN1C(=O)C(NC(=O)OC(C)(C)C)C(C)(C)C)C(=O)O (stereo not shown) |  |  | isolated perfused rabbit heart | 10 µM |  | heart rate change | -26%
Cc1cc(N)nc(CC2CNCC2OCCNCC(F)(F)c2cccc(F)c2)c1 (stereo not shown) |  |  |  | amine next to CF2 group |  | pKa | 5.5
Cc1cnc(Nc2ccc(C#N)cc2)nc1Nc1c(F)cc(-c2ccc(C#N)cc2)cc1F |  |  | human liver microsomes |  |  | intrinsic clearance | 5 mL/min/kg
C=C[C@@H]1C[C@]1(NC(=O)[C@@H]1C[C@@H](Oc2cc(-c3ccccc3)nc3cc(OC)ccc23)CN1C(=O)[C@@H](NC(=O)OC(C)(C)C)C(C)(C)C)C(=O)NS(=O)(=O)C1CC1 |  |  | rat, plasma | oral, 20 mg/kg, 4 h |  | AUC | 0.73 µM·h
CC1=C(C2=C(C)C(=O)c3c(cc(O)c(O)c3C(C)C)C2=O)C(=O)c2cc(O)c(O)c(C(C)C)c2C1=O (racemic) |  |  | rat plasma | 40 min |  | degradation | 23%
Cc1[nH]nc2c1N=C(c1ccccc1Cl)c1cnc(N3CCOCC3)cc1N2 |  |  | patients | dose not given, 7 dose cohorts |  | tolerability | not toxic
O=C(O[C@@H]1Cc2c(O)cc(O)cc2O[C@@H]1c1cc(O)c(O)c(O)c1)c1cc(O)c(O)c(O)c1 |  |  |  | pH 7.4, 37 °C |  | chemical half-life | ~0.75 h
O=C1c2ccccc2-c2c1c1ccc([N+](=O)[O-])cc1c(=O)n2C[C@H](O)[C@@H](O)[C@H](O)[C@H](O)CO | HCT-116 | cell growth | colon cancer |  |  | GI50 | 5.08 µM
O=C1CCC(=O)N([O-])CCCCCNC(=O)CCC(=O)N([O-])CCCCCOC(=O)CCC(=O)N([O-])CCCCCN1.[Fe+3] |  | item: Fe |  |  |  | log stability constant | 25.4 ± 0.1
Cc1ccccc1-c1cc(N2CC[N+](C)([O-])CC2)ncc1N(C)C(=O)C(C)(C)c1cc(C(F)(F)F)cc(C(F)(F)F)c1 |  |  | healthy volunteers, plasma | oral, 300 mg, fed, fixed-dose combination, with: palonosetron 0.5 mg |  | AUC(0-inf) | 1950 ng·h/mL
CCC(=O)O[C@@H]1[C@@H](OC(C)=O)C2=C(C(=O)C(O)=C(C(C)C)C2=O)[C@@]2(C)CCCC(C)(C)[C@H]12 | MEL1 |  |  |  |  | GI50 | 5 to 10 µM

SMILES | tested on | test | test system | conditions | how to read | quantity | value
COCCOCCOCCOCCC(=O)NCc1cc(CNC(=O)CCOCCOCCOCCOC)cc(-c2cc3cc4nc(c(OC)c5[nH]c(cc6nc(cc2[nH]3)CC6(C)C)cc5-c2cc(CNC(=O)CCOCCOCCOCCOC)cc(CNC(=O)CCOCCOCCOCCOC)c2)CC4(C)C)c1 |  |  | PBS | room temperature |  | Qy absorption FWHM | 22 nm
CC1(C)S[C@@H]2[C@H](NC(=O)c3c(-c4c(F)cccc4Cl)noc3CO)C(=O)N2[C@H]1C(=O)O |  |  | healthy volunteers | dose not given | relative to: fluoxetine | plasma concentration | ~10%
COc1cc(F)c(C(C)C)cc1C1=C(CN2C(=O)O[C@H](c3cc(C(F)(F)F)cc(C(F)(F)F)c3)[C@@H]2C)CC(C)(C)CC1 |  |  |  |  |  | logD | 7.4
COc1cc(-c2cncc(-c3ccc(N4CCNCC4)cc3)c2C)cc(OC)c1OC |  |  | SD-1 mouse male | oral, 10 mg/kg, 2 h |  | brain/plasma ratio | 0.9
O=C1C2=C(CCN(Cc3ccccc3)C2)N2CCN=C2N1Cc1ccc(C(F)(F)F)cc1 |  |  | rats | oral, 50 mg/kg |  | Cmax | 1460 ng/mL
C=C[C@@H]1C[C@]1(NC(=O)[C@@H]1C[C@@H](Oc2ncc(OC)c3ccccc23)CN1C(=O)[C@@H](NC(=O)OC(C)(C)C)C(C)(C)C)C(=O)NS(=O)(=O)C1CC1 |  |  | rat, liver | intravenous, 5 mg/kg, 24 h |  | tissue concentration | 8 µM
CCCCCCc1ccc(Oc2ccccc2C#N)c(O)c1 |  |  | mouse | 40 mg/kg |  | Tmax | 4 h
Cc1ccc(OCC(=O)O)cc1 |  |  | female rat | oral, 30 mg/kg of parent drug, measured as metabolite |  | Cmax | 9730 ng/mL
CN1CCN(c2cc(-c3ccccc3CO)c(N(C)C(=O)C(C)(C)c3cc(C(F)(F)F)cc(C(F)(F)F)c3)cn2)CC1 |  |  | healthy volunteers, plasma | oral, dose not given, netupitant-palonosetron, fed |  | Tmax | 16.7 h
O=C(Nc1ccc(Br)cc1)Nc1ccc2nc(-c3ccco3)c(-c3ccco3)nc2c1 |  |  | rat | oral |  | oral bioavailability | 16%
Nc1ncnc2c1ncn2[C@H]1C[C@H](O)[C@@H](COP(=O)(O)OP(=O)(O)[C@H](Cl)P(=O)(O)O)O1 |  | item: bisphosphonate leaving group | aqueous solution | measured experimentally |  | pKa4 | 9.5
CCN(CC)C(=O)c1ccc(-c2c3ccc(=[N+](C)C)cc-3sc3cc4c(cc23)C(C)(C)CCN4C)s1 |  |  | methanol |  |  | absorption maximum | 597 nm
Cc1ccc(O)c(CN(CCN(Cc2ccccn2)Cc2ccccn2)Cc2ccccn2)c1 |  |  |  | 25 °C |  | pKa1 | 4.11
Cc1cc(C)c(-c2cc(C)c(OP(=O)([O-])OCCC[C@H](C(=O)[O-])N3CCN(CC(=O)[O-])CCN(Cc4cccc(C(=O)[O-])n4)CCN(CC(=O)[O-])CC3)cc2C)c(C)c1.[Gd+3] |  |  | free complex |  |  | inner-sphere water number | 0
CC(=O)Nc1ccc(C(=O)Nc2cc(-c3cccs3)ccc2N)cc1 |  |  | mouse | intraperitoneal, 45 mg/kg |  | brain-to-plasma ratio | 0.5
Cc1ccccc1-c1cc(N2CCNCC2)ncc1N(C)C(=O)C(C)(C)c1cc(C(F)(F)F)cc(C(F)(F)F)c1 |  |  | healthy volunteers, plasma | oral, 300 mg, fasted, fixed-dose combination, with: palonosetron 0.5 mg |  | AUC(0-inf) | 5890 ng·h/mL
COc1cc(/N=N/c2ccc([N+](=O)[O-])cc2)ccc1N(CCS(=O)(=O)O)CCS(=O)(=O)O |  |  | water | 10 µM |  | pKa | 2.6

A few entries again:
SMILES | tested on | test | test system | conditions | how to read | quantity | value
COCCOCCOCCOCCC(=O)NCc1cc(CNC(=O)CCOCCOCCOCCOC)cc(-c2cc3cc4nc(c(OC)c5[nH]c(cc6nc(cc2[nH]3)CC6(C)C)cc5-c2cc(CNC(=O)CCOCCOCCOCCOC)cc(CNC(=O)CCOCCOCCOCCOC)c2)CC4(C)C)c1 |  |  | PBS | room temperature |  | Qy absorption FWHM | 22 nm
CC1(C)S[C@@H]2[C@H](NC(=O)c3c(-c4c(F)cccc4Cl)noc3CO)C(=O)N2[C@H]1C(=O)O |  |  | healthy volunteers | dose not given | relative to: fluoxetine | plasma concentration | ~10%
COc1cc(F)c(C(C)C)cc1C1=C(CN2C(=O)O[C@H](c3cc(C(F)(F)F)cc(C(F)(F)F)c3)[C@@H]2C)CC(C)(C)CC1 |  |  |  |  |  | logD | 7.4
COc1cc(-c2cncc(-c3ccc(N4CCNCC4)cc3)c2C)cc(OC)c1OC |  |  | SD-1 mouse male | oral, 10 mg/kg, 2 h |  | brain/plasma ratio | 0.9
O=C1C2=C(CCN(Cc3ccccc3)C2)N2CCN=C2N1Cc1ccc(C(F)(F)F)cc1 |  |  | rats | oral, 50 mg/kg |  | Cmax | 1460 ng/mL
